Measured values gathered from unrelated publications.
± gives the spread as reported.

For `COC(=O)CCC(C)C1CCC2C3C(O)CC4CC(OC(=O)CCC(=O)OC5OC6OC7(C)CCC8C(C)CCC(C5C)C68OO7)CCC4(C)C3CCC12C` (centres unmarked), the IC50 was greater than 100 µM (Vero E6; cytotoxicity; 24 h).
`CC=C(C)C(=O)OC1C(O)C2OC(COC(=O)CCCCCCCCCC(CCCCC)OC3OC(C)C(OC(C)=O)C(O)C3O2)C1OC(=O)C=Cc1ccccc1` (centres unmarked) gave an IC50 of 0.0161 µM (MDA-MB-231; cytotoxicity).
The IC50 of `CC[C@H](C)[C@H]1C(=O)O[C@H](C(C)C)C(=O)N(C)[C@@H]([C@@H](C)CC)C(=O)O[C@H](C(C)C)C(=O)N(C)[C@@H]([C@@H](C)CC)C(=O)O[C@H](C(C)C)C(=O)N1C` is reported as 7.5 µM (murine cancer cells; cytotoxicity).
For `CCCCn1cc(C(=O)O)c(=O)c2cc(F)c(Nc3cccc(Cl)c3)c([N+](=O)[O-])c21`, the IC50 was 33.8 ± 2.02 µg/mL (HCT-116; cell growth, SRB; 72 h).
The IC50 of `[Cl-].[Cl-].[Ni+2].c1ccc(CN2CCNCCN(Cc3ccccc3)CCNCC2)cc1` is reported as greater than 20 µM (THP-1; cell growth or viability).
`CC[C@H](C)[C@H](NC(=O)[C@H](CCCCN)NC(=O)[C@H](CCCCN)NC(=O)[C@H](Cc1ccccc1)NC(=O)[C@H](Cc1ccccc1)NC(=O)[C@H](CCCCN)NC(=O)[C@H](CCCCN)NC(=O)[C@H](Cc1ccccc1)NC(=O)[C@H](CCCNC(=N)N)NC(=O)[C@@H](N)CCCCN)C(=O)N[C@@H](CCCCN)C(=O)N[C@@H](CCCCN)C(=O)N[C@@H](CO)C(=O)N[C@H](C(=O)N[C@@H](CCCCN)C(=O)N[C@@H](CCCCN)C(=O)N[C@@H](CCCNC(=N)N)C(=O)N[C@H](C(=O)N[C@@H](CCCCN)C(=O)N[C@@H](CCCCN)C(=O)N[C@@H](CC(C)C)C(=O)N[C@@H](Cc1ccccc1)C(=O)N[C@@H](CCCCN)C(=O)N[C@@H](CCCCN)C(=O)N1CCC[C@H]1C(=O)N[C@@H](CCCNC(=N)N)C(=O)N[C@H](C(=O)N[C@H](C(=O)N1CCC[C@H]1C(=O)N[C@H](C(=O)N[C@@H](CO)C(=O)N[C@H](C(=O)N1CCC[C@H]1C(=O)N[C@@H](Cc1ccccc1)C(=O)O)[C@@H](C)CC)[C@@H](C)CC)[C@@H](C)CC)C(C)C)C(C)C)C(C)C` gave an IC50 of greater than 128 µg/mL (BEAS-2B; cytotoxicity, MTT; 48 h).
`CC=C(C)C(=O)OC1C(O)C2COC(=O)CCC(=O)CCCCCCC(CCCCC)OC3OC(C)C(OC(C)=O)C(O)C3OC(O2)C1O` (centres unmarked) gave an IC50 of 7.13 µM (MDA-MB-231; cytotoxicity).
The IC50 of `CCCCn1cc(C(=O)O)c(=O)c2cc(F)c3c(nnn3-c3cccc(Cl)c3)c21` is reported as 34.9 ± 2.59 µg/mL (HCT-116; cell growth, SRB; 72 h).
With `CC=C(C)C(=O)OC1C(O)C2OC(COC(=O)CCC(=O)CCCCCCC(CCCCC)OC3OC(C)C(OC(C)=O)C(O)C3O2)C1OC(=O)CCc1ccccc1` (centres unmarked) the IC50 was 0.98 µM (MDA-MB-231; cytotoxicity).
`CCCCn1cc(C(=O)O)c(=O)c2cc(F)c(Nc3cccc(Cl)c3)c(N)c21` gave an IC50 of 0.84 µM (HCT-116; cell growth or viability, SRB).
`COC1CC(=O)N(C)C=CCCCC(=O)N(C)C(C(C)C)C(=O)N(C)C(CC(C)C)C(=O)OC(C(C)C)CC(C)C1` (centres unmarked) has an IC50 of 53.5 ± 7.5 µM (HCT-116; cytotoxicity, MTT; 48 h).
For `CCCC(C)C1OC(=O)[C@H](C(C)C)N(C)C(=O)[C@H](CO)NC(=O)[C@H]([C@@H](C)C(N)=O)NC(=O)[C@@H]([C@H](C)OC(N)=O)NC(=O)[C@H](O)CNC(=O)/C=C/C=C/CC(O)C1C` (some centres unmarked), the IC50 was greater than 25 µg/mL (HCT-116; MTT; 24 h).
`CC=C(C)C(=O)OC1C(O)C2OC(COC(=O)CCC(=O)CCCCCCC(CCCCC)OC3OC(C)C(O)C(O)C3O2)C1OC(=O)C=Cc1ccccc1` (centres unmarked) has an IC50 of 0.297 µM (MCF-10A; cytotoxicity).
With `CCCCn1cc(C(=O)O)c(=O)c2cc(F)c(Nc3ccccc3Cl)c([N+](=O)[O-])c21` the IC50 was 42.1 ± 1.79 µg/mL (HCT-116; cell growth, SRB; 72 h).
